Experimental data of several laboratories.
Each numbered part is a random draw from the data of one study; scales do not carry over between parts. Several values in a cell are separate wells, animals, samples, runs or records.

Sample 1
Cell line: mouse MPNST tumor cells
Technique: high-content nuclear imaging
Refers to: cell number
Tested at: 10 µM
Time: 12 h
Notes: mean of 2 replicates
Relative to: plate mean
Reading: higher = more cells
| SMILES | nuclei count |
| --- | --- |
| C=CCN1CC[C@]23c4c5ccc(O)c4O[C@H]2C(=O)CC[C@@]3(O)[C@H]1C5 | 1.34 z-score |
| COc1ccc(C(CN(C)C)C2(O)CCCCC2)cc1 (stereo not drawn) | -0.422 z-score and 3.81 z-score |
| CC(Cc1ccccc1)NCCC(c1ccccc1)c1ccccc1 (stereo not drawn) | -4.86 z-score |

Sample 2
Cell line: HEK-293T-ACE2
Tested at: concentration not given
Relative to: vehicle
| SMILES | cell number [%] |
| --- | --- |
| CCN1CC(CCN2CCOCC2)C(c2ccccc2)(c2ccccc2)C1=O.Cl.O (stereo not drawn) | 81.6 |
| O=[As]O[As]=O (stereo not drawn) | 103 |
| O=C(O)C(=O)O.[NH-][C@@H]1CCCC[C@H]1[NH-].[Pt+2] | 100 |
| S=c1nc[nH]c2nc[nH]c12 | 103 |
| FC(F)(F)C(Cl)Br (stereo not drawn) | 98.2 |
| C=C1c2c(Cl)ccc(O)c2C(=O)C2=C(O)[C@]3(O)C(=O)C(C(N)=O)=C(O)[C@@H](N(C)C)[C@@H]3[C@@H](O)[C@H]12.O=C(O)c1cc(S(=O)(=O)O)ccc1O | 102 |
| Nc1nc2[nH]cc(CCc3ccc(C(=O)N[C@@H](CCC(=O)O)C(=O)O)cc3)c2c(=O)[nH]1 | 89.7 |
| C=CCN1CC[C@]23c4c5ccc(O)c4O[C@H]2[C@@H](OCCOCCOCCOCCOCCOCCOCCOC)CC[C@@]3(O)[C@H]1C5.O=C(O)C(=O)O | 101 |
| O=C([O-])c1ccccc1[O-].[Bi+3].[OH-] | 99.4 |
| CCCCC(O)c1ccccc1 (stereo not drawn) | 96.1 |
| O=C([O-])[C@H](O)[C@@H](O)[C@H](O)[C@H](O)CO.[Na+] | 101 |

Sample 3
Cell line: HaCaT
Tested at: 100 µM
Time: 36 h
| SMILES | viability |
| --- | --- |
| C[C@]1(O)CC[C@H]2[C@@H]3CCC4=CC(=O)CC[C@]4(C)[C@@]3(F)[C@@H](O)C[C@@]21C | 97.5% |
| CCC1=C[C@@H]2CN3CCc4c([nH]c5ccccc45)[C@@](C(=O)OC)(C2)[C@@H]13 | 113% |
| CC(C)c1c(CN(C)C(C)Cc2ccccc2)n(C)n(-c2ccccc2)c1=O (stereo not drawn) | 80.6% |
| C[C@]12CC[C@H]3[C@@H](CCC4=CC(=O)CC[C@@]43C)[C@@H]1CC[C@@H]2O | 96.4% |
| C[C@]12C=CC(=O)C=C1CC[C@@H]1[C@@H]2CC[C@@]2(C)[C@H]1CC[C@]2(C)O | 94% |

Sample 4
Cell line: HEK-293T-ACE2-TMPRSS2
Technique: cell count
Tested at: concentration not given
| SMILES | viability |
| --- | --- |
| CCOC(=O)c1nc(N2CCC(c3ccccc3)C2)c2ccccc2n1 (stereo not drawn) | 84% |
| Cc1onc(-c2c(Cl)cccc2Cl)c1C(=O)On1c(-c2ccccc2)nc2ccccc2c1=O | 71% |
| Cc1cc2c(cc1S(=O)(=O)N1CCCC(C(=O)N3CC(=O)Nc4ccccc43)C1)OCC(=O)N2 (stereo not drawn) | 80% |
| COc1ccc(Br)cc1C1CC(=O)Nc2c1c(C)nn2-c1nc2ccccc2[nH]1 (stereo not drawn) | 78% |
| Cn1c(CN2CCN(C(=O)c3ccc4c(c3)OCO4)CC2)nc2cc(C(=O)N3CCCC3)ccc21 | 85% |
| CN(Cc1cccc2cnccc12)S(=O)(=O)NCc1ccccc1 | 109% |
| NC(=O)c1snc(C(=O)N(Cc2ccccc2)C2CCN(Cc3ccccc3)CC2)c1N | 74% |
| COc1cc(NC(=O)CCC2CCCN(C3CCSCC3)C2)cc(OC)c1 (stereo not drawn) | 108% |
| CCS(=O)(=O)N(C)c1ccc2sc(C(=O)Nc3ccc(Cl)cc3C)cc2c1 | 76% |
| NC(=O)C1(N2CCCCC2)CCN(c2ncnc3sc4c(c23)CCNC4)CC1 | 95% |
| CCOC(=O)c1c(-c2ccc(N(C)C)cc2)n(C)c2cc(-c3cccnc3)c(O)cc12 | 76% |
| Cc1oc2ncnc(N3CCC(C(=O)NCc4cccs4)CC3)c2c1C | 74% |
| Cc1noc(-c2ccc(S(=O)(=O)NCc3cccs3)o2)c1C | 70% |
| O=C(NCc1ccccc1Cn1cccn1)c1cnc(S)n1-c1ccccc1 | 261% |
| CNS(=O)(=O)CCNCC1(O)CCCN(Cc2cccc(C)c2)C1=O (stereo not drawn) | 102% |
| Cc1cccc(CNC(=O)C2CCN(S(=O)(=O)c3cc(-c4noc(C5CC5)n4)ccc3C)CC2)c1 | 69% |
| CN1CCC2(CC1)CN(C(=O)c1cnc(-c3ccccc3)nc1)CCN2C | 72% |
| CCN(CC)CCNC(=O)c1ccc(Nc2cc(-c3cccc(C)c3)ncn2)cc1 | 67% |
| COc1ccc(-c2ccc(Nc3ccc(C)c(C)c3)nn2)cc1S(=O)(=O)N1CCCC1 | 82% |
| O=C(c1ccc(-n2cnnc2)cc1Cl)N1CCN(CCOc2ccc(Cl)cc2)CC1 | 65% |
| Cc1cc2c(cc1O)NC(=O)CC2c1c[nH]nc1-c1ccc(F)cc1 (stereo not drawn) | 102% |
| Cc1cc(C(=O)N2C[C@@H](CO)[C@H](N(C)C)C2)on1 | 116% |
| CCCS(=O)(=O)c1ncc(Cl)c(C(=O)N(Cc2ccccc2)Cc2ccco2)n1 | 73% |
| OCC1(CCOc2ccccc2)CCCN(c2ncnc3c2CCC3)C1 (stereo not drawn) | 70% |
| CC(=O)Oc1cccc(C2OC(c3cccc(Br)c3)=NN2C(C)=O)c1OC(C)=O (stereo not drawn) | 73% |

Sample 5
Organism: Sarcocystis neurona
Observed: parasite growth
Tested at: 10 µM
| Compound | inhibition |
| --- | --- |
| CC[C@]1(O)CC[C@H]2[C@@H]3CCC4=CCCC[C@@H]4[C@H]3CC[C@@]21C | -29.5% |
| C[C@]12CC[C@H]3[C@@H](CCC4=CC(=O)CC[C@@H]43)[C@@H]1CC[C@@H]2O | 5.9% |
| Oc1cc(Cl)ccc1Oc1ccc(Cl)cc1Cl | 18.2% |
| CC(C)[C@]12O[C@H]1[C@@H]1O[C@]13[C@]1(O[C@H]1C[C@H]1C4=C(CC[C@@]13C)C(=O)OC4)[C@@H]2O | 85.7% |
| O=C(O)C(Cl)Cl | -20.3% |
| CCC1(c2ccc(N)cc2)CCC(=O)NC1=O (stereo not drawn) | -28% |

Single results of other studies
| Structure (SMILES) | test system | conditions | measurement | result |
| --- | --- | --- | --- | --- |
| COc1ccc(-c2c(Nc3ccccn3)[nH]c3c(C4=CCCCC4)c(-c4ccccc4)nn3c2=O)cc1 | patients with advanced malignancies | oral, dose not given, treatment-emergent adverse events | platelet count decreased incidence | 10% |

For quick reference, copied from above (sample 1):
| SMILES | nuclei count |
| --- | --- |
| CC(Cc1ccccc1)NCCC(c1ccccc1)c1ccccc1 (stereo not drawn) | -4.86 z-score |
| C=CCN1CC[C@]23c4c5ccc(O)c4O[C@H]2C(=O)CC[C@@]3(O)[C@H]1C5 | 1.34 z-score |
| COc1ccc(C(CN(C)C)C2(O)CCCCC2)cc1 (stereo not drawn) | -0.422 z-score and 3.81 z-score |
